{"data": "Earlier results as cited in several papers", "CA12": "Carbonic anhydrase 12 (CA12, Homo sapiens, UniProt O43570)", "CA2": "Carbonic anhydrase 2 (CA2, Homo sapiens, UniProt P00918)", "note": "Protocols differ between the studies behind these lines. Numbers after ± are the reported error.", "chain of UniProt O43570 (whole entry, looked up)": "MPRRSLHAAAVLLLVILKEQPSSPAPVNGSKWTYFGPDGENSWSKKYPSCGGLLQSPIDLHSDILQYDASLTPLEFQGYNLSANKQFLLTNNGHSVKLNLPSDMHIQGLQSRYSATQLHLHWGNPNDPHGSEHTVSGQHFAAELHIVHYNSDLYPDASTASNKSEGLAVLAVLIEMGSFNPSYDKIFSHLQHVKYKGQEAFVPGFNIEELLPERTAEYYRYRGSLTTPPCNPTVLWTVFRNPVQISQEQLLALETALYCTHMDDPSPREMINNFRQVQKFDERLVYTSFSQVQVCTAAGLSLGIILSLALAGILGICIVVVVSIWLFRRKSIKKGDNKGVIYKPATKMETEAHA", "chain of UniProt P04637 (whole entry, unmodified, looked up)": "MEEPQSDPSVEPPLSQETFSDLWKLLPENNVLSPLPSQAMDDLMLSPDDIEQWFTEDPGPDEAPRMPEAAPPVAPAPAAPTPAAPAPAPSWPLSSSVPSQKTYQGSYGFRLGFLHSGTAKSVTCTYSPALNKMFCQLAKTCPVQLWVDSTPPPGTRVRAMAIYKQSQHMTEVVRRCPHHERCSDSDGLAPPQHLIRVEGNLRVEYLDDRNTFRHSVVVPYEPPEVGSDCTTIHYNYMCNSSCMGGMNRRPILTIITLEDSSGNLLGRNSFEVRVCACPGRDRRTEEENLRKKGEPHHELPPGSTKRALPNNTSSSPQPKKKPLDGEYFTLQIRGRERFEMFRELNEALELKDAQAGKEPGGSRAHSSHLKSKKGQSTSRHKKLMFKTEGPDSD", "chain of UniProt Q05097 (whole entry, looked up)": "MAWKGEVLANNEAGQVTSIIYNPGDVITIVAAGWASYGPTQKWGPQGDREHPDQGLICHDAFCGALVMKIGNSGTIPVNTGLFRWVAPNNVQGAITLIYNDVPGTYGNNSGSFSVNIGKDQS", "chain of UniProt P30680 (whole entry, looked up)": "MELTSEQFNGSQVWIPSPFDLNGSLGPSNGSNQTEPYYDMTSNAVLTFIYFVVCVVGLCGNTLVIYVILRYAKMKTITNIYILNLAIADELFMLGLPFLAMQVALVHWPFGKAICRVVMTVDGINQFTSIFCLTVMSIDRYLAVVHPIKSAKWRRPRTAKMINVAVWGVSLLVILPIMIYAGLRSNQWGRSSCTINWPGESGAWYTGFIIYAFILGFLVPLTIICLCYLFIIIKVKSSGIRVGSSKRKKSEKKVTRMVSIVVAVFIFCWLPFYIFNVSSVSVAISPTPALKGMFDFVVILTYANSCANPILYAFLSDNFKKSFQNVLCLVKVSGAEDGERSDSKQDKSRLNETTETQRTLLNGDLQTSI", "chain of UniProt Q8CJH3 (whole entry, looked up)": "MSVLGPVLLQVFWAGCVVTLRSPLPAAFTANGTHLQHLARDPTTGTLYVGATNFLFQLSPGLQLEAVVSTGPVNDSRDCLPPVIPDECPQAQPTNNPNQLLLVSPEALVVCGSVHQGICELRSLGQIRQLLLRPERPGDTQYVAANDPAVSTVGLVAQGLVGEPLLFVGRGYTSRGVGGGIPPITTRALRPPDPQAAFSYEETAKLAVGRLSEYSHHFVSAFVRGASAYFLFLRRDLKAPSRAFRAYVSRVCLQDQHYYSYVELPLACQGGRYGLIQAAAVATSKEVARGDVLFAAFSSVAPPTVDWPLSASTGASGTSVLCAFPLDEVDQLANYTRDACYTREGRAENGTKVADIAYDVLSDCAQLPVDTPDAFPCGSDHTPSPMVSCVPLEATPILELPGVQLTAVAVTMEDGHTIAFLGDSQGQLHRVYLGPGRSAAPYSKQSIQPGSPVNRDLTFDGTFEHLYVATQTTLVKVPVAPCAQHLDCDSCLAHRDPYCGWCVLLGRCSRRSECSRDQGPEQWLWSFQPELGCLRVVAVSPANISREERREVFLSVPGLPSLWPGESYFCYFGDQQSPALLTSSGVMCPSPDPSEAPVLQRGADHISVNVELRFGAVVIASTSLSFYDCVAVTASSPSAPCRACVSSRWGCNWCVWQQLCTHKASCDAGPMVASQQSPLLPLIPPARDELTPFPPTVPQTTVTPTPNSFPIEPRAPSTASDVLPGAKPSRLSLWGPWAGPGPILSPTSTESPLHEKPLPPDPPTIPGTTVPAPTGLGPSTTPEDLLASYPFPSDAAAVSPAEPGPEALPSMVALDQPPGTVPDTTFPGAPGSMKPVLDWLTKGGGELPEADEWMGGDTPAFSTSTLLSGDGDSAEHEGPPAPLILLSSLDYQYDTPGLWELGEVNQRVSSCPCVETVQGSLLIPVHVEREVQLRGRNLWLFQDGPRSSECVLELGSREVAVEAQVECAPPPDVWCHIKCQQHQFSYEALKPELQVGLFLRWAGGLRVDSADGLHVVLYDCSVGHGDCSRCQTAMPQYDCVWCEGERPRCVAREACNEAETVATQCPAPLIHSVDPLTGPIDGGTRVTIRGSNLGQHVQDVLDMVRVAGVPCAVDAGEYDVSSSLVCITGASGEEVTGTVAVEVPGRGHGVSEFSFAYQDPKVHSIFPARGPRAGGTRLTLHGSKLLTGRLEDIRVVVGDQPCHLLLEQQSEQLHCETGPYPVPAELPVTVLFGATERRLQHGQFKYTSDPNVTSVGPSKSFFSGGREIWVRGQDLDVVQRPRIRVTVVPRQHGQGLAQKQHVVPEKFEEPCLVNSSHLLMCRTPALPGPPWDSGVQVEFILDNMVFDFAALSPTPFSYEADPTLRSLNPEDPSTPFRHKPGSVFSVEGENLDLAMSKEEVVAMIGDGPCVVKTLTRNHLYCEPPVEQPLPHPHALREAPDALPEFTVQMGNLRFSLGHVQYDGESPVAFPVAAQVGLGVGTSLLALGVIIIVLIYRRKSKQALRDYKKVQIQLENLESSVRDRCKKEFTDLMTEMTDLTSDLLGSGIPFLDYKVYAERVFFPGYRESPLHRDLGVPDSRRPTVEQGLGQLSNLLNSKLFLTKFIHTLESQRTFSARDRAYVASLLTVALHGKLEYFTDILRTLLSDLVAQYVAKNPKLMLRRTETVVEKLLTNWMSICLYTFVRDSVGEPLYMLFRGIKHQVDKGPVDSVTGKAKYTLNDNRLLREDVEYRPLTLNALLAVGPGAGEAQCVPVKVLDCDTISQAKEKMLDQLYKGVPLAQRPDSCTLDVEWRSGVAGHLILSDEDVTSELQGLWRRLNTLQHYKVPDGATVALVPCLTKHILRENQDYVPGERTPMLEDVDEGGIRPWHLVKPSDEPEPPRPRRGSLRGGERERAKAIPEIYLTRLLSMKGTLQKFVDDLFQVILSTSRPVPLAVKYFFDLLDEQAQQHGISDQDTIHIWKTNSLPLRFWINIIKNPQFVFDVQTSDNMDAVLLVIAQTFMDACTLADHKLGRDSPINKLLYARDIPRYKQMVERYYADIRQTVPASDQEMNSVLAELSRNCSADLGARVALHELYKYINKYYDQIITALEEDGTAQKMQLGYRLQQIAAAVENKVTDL", "chain of UniProt P13569 (whole entry, looked up)": "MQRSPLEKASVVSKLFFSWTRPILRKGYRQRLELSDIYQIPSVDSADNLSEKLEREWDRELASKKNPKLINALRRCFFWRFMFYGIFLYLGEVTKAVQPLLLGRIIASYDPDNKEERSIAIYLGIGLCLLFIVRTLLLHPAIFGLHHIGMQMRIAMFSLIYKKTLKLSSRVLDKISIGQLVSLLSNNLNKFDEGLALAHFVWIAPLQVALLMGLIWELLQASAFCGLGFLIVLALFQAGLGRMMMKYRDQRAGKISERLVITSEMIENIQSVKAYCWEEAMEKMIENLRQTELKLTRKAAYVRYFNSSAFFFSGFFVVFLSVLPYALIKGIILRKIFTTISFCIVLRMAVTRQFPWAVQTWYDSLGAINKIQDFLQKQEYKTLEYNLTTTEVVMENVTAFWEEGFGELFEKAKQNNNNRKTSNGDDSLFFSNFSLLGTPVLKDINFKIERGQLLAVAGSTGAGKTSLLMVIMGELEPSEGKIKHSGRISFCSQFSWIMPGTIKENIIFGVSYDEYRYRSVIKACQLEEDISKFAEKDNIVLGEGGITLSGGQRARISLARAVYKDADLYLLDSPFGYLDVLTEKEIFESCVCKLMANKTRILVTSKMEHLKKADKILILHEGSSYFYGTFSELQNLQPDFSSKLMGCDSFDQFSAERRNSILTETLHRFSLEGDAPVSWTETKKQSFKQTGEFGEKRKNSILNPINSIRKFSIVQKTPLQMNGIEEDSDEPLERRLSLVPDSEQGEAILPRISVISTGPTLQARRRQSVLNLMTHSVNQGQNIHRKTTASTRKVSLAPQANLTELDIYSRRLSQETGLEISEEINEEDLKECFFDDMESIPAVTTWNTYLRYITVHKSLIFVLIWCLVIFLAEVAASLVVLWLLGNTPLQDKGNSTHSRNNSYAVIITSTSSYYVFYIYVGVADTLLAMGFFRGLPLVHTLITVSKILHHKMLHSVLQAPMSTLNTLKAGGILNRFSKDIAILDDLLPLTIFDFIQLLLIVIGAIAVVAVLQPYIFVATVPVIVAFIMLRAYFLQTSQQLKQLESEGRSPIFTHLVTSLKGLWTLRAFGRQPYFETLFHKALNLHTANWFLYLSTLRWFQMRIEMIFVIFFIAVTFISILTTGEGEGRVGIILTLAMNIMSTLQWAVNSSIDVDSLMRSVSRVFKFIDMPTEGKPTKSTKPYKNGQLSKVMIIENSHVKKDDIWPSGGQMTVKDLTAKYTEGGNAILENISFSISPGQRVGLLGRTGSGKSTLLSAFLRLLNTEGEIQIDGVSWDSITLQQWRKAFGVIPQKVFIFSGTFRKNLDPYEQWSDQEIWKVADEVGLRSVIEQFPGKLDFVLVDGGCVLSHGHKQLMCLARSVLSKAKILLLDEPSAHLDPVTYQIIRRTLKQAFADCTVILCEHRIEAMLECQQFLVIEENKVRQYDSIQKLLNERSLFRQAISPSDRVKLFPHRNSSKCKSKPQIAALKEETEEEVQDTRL"}
{"Structure (SMILES)": "C[C@H](NC(=O)[C@@H]1CCCN1C(=O)[C@@H]1CCCN1C(=O)[C@H](C)NC(=O)[C@@H](NC(=O)[C@H](CO)NC(=O)CNC(=O)[C@@H]1CCCN1C(=O)[C@H](C)NC(=O)[C@@H]1CCCN1C(=O)[C@@H](N)CCCNC(=N)N)[C@@H](C)O)C(=O)N[C@@H](Cc1c[nH]cn1)C(=O)NCC(=O)O", "target": "14 A monoclonal antibody", "assay": "SPR", "Kd": "234 nM"}
{"Structure (SMILES)": "NS(=O)(=O)c1c(F)c(F)c(S(=O)(=O)CCc2ccccc2)c(N2CCOCC2)c1F", "target": "CA12", "assay": "fluorescent thermal shift", "setting": "pH 7.0, 37 °C, observed", "Kd": "150 nM"}
{"Structure (SMILES)": "O=P(O)(O)O[C@@H]1[C@H](O)[C@H](O)[C@@H](OP(=O)(O)O)[C@H](OP(=O)(O)O)[C@H]1O", "target": "IP3 receptor", "Kd": "13 nM"}
{"Structure (SMILES)": "CN[C@@H](C)C(=O)Nc1nc(-c2ccc(Br)cc2)c(-c2ccccc2)s1", "target": "XIAP BIR3 domain", "Kd": "740 nM"}
{"Structure (SMILES)": "OC[C@H]1OC(O)[C@H](O)[C@@H](O)[C@H]1O (stereo partly drawn)", "target": "LecA lectin, Pseudomonas aeruginosa", "Kd": "87500 nM"}
{"Structure (SMILES)": "NS(=O)(=O)c1cc(C(=O)NCCCC(=O)O)c(S(=O)(=O)c2ccccc2)cc1Cl", "target": "CA2", "assay": "thermal shift", "setting": "pH 7.0, 37 °C", "Kd": "15 nM"}
{"Structure (SMILES)": "CC(=O)NCCCC[C@H](NC(=O)CNC(=O)CNC(=O)[C@@H](NC(=O)[C@H](CO)NC(=O)[C@H](CCCCN)NC(=O)[C@H](CCCNC(=N)N)NC(=O)[C@H](C)NC(=O)[C@@H](NC(=O)[C@H](CCC(N)=O)NC(=O)[C@H](CCCCN)NC(=O)[C@@H](NC(=O)[C@H](CCCNC(=N)N)NC(=O)[C@H](C)N)[C@@H](C)O)[C@@H](C)O)[C@@H](C)O)C(=O)N[C@@H](C)C(=O)N1CCC[C@H]1C(=O)N[C@@H](CCCNC(=N)N)C(=O)N[C@@H](CCCCN)C(=O)N[C@@H](CCC(N)=O)C(=O)O", "target": "DPF3 double PHD finger domain", "assay": "binding", "Kd": "500 nM"}
{"Structure (SMILES)": "OCCn1cc(CO[C@@H]2O[C@H](CO)[C@H](O)[C@H](O)[C@H]2O)nn1", "target": "lecA (Pseudomonas aeruginosa, UniProt Q05097)", "assay": "ITC", "Kd": "22000 nM"}
{"Structure (SMILES)": "N=C(N)NCCC[C@H](NC(=O)[C@H](CSSC[C@H](NC(=O)[C@H](Cc1ccc(O)cc1)NC(=O)[C@H](Cc1c[nH]c2ccccc12)NC(=O)[C@H](CCCNC(=N)N)NC(=O)[C@@H](N)Cc1c[nH]c2ccccc12)C(=O)N[C@@H](CCCNC(=N)N)C(N)=O)NC(=O)[C@H](Cc1ccc(O)cc1)NC(=O)[C@H](Cc1c[nH]c2ccccc12)NC(=O)[C@H](CCCNC(=N)N)NC(=O)[C@@H](N)Cc1c[nH]c2ccccc12)C(N)=O (single isomer, unassigned)", "target": "Holliday junction DNA", "assay": "binding, EMSA", "setting": "dimer equivalents", "Kd": "14 nM"}
{"Structure (SMILES)": "NS(=O)(=O)c1c(F)c(F)c(SCCO)c(NC(c2ccccc2)C(O)c2ccccc2)c1F (stereo not drawn)", "target": "CA12", "assay": "fluorescent thermal shift", "setting": "pH 7.0, 37 °C, observed", "Kd": "16 nM"}
{"Structure (SMILES)": "O=C(Nc1cccc(Br)c1)Nc1cc(Oc2ccc3nc(NC(=O)C4CC4)sc3c2)ccc1F", "target": "RIPK1 (Homo sapiens, UniProt Q13546)", "Kd": "> 5000 nM"}
{"Structure (SMILES)": "CN1CCN(c2ccc3nc(-c4ccc5nc(-c6cccc(OCCCC(=O)NCCCN=[N+]=[N-])c6)[nH]c5c4)[nH]c3c2)CC1", "target": "5'CGG/3'GGC RNA motif", "assay": "binding", "Kd": "375 ± 26 nM"}
{"Structure (SMILES)": "CCOC(=O)c1oc2ccccc2c1CBr", "target": "Serine/threonine-protein kinase PLK1, polo-box domain (PLK1, Homo sapiens, UniProt P53350)", "assay": "microscale thermophoresis", "Kd": "13000 nM"}
{"Structure (SMILES)": "CN1CCN(/C=C2\\CCn3c2nc(=O)c2c(Cl)cccc23)CC1", "target": "SMARCA4", "assay": "binding", "Kd": "417 nM"}
{"Structure (SMILES)": "NS(=O)(=O)c1c(F)c(F)c([S+]([O-])CCO)c(F)c1NC1CCCCCCC1 (stereo not drawn)", "target": "CA2", "assay": "thermal shift", "setting": "pH 7.0, 37 °C", "Kd": "2200 nM"}
{"Structure (SMILES)": "CC(=O)O[C@H]1C(=O)[C@]2(C)[C@@H](OC(=O)CCCNC(=O)c3cc4cc(F)c(O)c(F)c4oc3=O)C[C@H]3OC[C@@]3(OC(C)=O)[C@H]2[C@H](OC(=O)c2ccccc2)[C@]2(O)C[C@H](OC(=O)[C@H](O)[C@@H](NC(=O)c3ccccc3)c3ccccc3)C(C)=C1C2(C)C", "target": "cross-linked microtubules", "assay": "binding", "setting": "room temperature", "Kd": "265 nM"}
{"Structure (SMILES)": "NS(=O)(=O)c1c(F)c(F)cc(F)c1NC1CCCCCCC1", "target": "CA12", "assay": "fluorescent thermal shift", "setting": "pH 7.0, 37 °C, observed", "Kd": "720 nM"}
{"Structure (SMILES)": "CC[C@H](C)[C@H](NC(=O)[C@H](CC(=O)O)NC(=O)[C@H](CC(=O)O)NC(=O)[C@@H]1CCCN1C(=O)[C@H](CO)NC(=O)[C@H](CC(C)C)NC(=O)[C@H](CCSC)NC(=O)[C@H](CC(C)C)NC(=O)[C@H](CC(=O)O)NC(=O)[C@H](CC(=O)O)NC(=O)[C@@H](N)CCSC)C(=O)N[C@@H](CCC(=O)O)C(=O)N[C@@H](CCC(N)=O)C(=O)N[C@@H](Cc1c[nH]c2ccccc12)C(=O)N[C@@H](Cc1ccccc1)C(=O)N[C@H](C(=O)N[C@@H](CCC(=O)O)C(=O)N[C@@H](CC(=O)O)C(=O)O)[C@@H](C)O", "target": "DBD-F", "assay": "fluorescence anisotropy", "Kd": "99900 nM"}
{"Structure (SMILES)": "CC[C@H](C)[C@@H]1NC(=O)[C@H](CCC(N)=O)NC(=O)CNC(=O)[C@H]([C@@H](C)O)NC(=O)[C@H](Cc2c[nH]c3ccccc23)NC(=O)[C@H](CCCNC(=N)N)NC(=O)[C@H](C)NC(=O)[C@H](C(C)C)NC(=O)[C@H](CCCNC(=N)N)NC(=O)[C@@H]2CCCN2C(=O)[C@H](CCCNC(=N)N)NC(=O)[C@@H](Cc2c[nH]c3ccccc23)NC(=O)CSC[C@@H](C(=O)N[C@@H](CO)C(N)=O)NC(=O)[C@H](Cc2ccc(O)cc2)NC(=O)[C@H]([C@@H](C)CC)NC1=O", "target": "Plexin-B1 (Plxnb1, Mus musculus, UniProt Q8CJH3)", "scale": "no detectable affinity", "Kd": "> 1000 nM"}
{"Structure (SMILES)": "NS(=O)(=O)c1c(F)c(F)c(S(=O)(=O)CCO)c(NC2CCCCCCCCCCC2)c1F", "target": "CA12", "assay": "fluorescent thermal shift", "setting": "pH 7.0, 37 °C, observed", "Kd": "5 nM"}
{"Structure (SMILES)": "C[C@@H](O)[C@H](NC(=O)[C@@H]1CSSC[C@H](NC(=O)[C@@H](Cc2ccccc2)NC(=O)CN2CCCN3CCN(CCCN(CC(=O)O)CC3)CC2)C(=O)N[C@@H](Cc2ccc(O)cc2)C(=O)N[C@H](Cc2c[nH]c3ccccc23)C(=O)N[C@@H](CCCCN)C(=O)N[C@@H]([C@@H](C)O)C(=O)N1)C(=O)O [copper-64 labelled]", "target": "Somatostatin receptor type 2 (Rattus norvegicus, UniProt P30680)", "assay": "binding", "system": "AR-42J cell membranes", "Kd": "1.5 nM"}
{"Structure (SMILES)": "C[n+]1cc(NC(=O)c2ccc3ccc4ccc(C(=O)Nc5cc6ccccc6[n+](C)c5)nc4c3n2)cc2ccccc21", "target": "telomeric G-quadruplex DNA", "assay": "binding, surface plasmon resonance", "Kd": "2.1 to 2.4 nM"}
{"Structure (SMILES)": "O=C(O)c1cc([N+](=O)[O-])ccc1NCCCc1ccccc1", "target": "Cystic fibrosis transmembrane conductance regulator, gating site (CFTR, Homo sapiens, UniProt P13569)", "assay": "gating site binding", "Kd": "80000 nM"}
{"Structure (SMILES)": "NS(=O)(=O)c1c(F)c(F)c(S(=O)(=O)CCc2ccccc2)c(N[C@H]2CCc3ccccc32)c1F", "target": "CA2", "assay": "thermal shift", "setting": "pH 7.0, 37 °C", "Kd": "2.9 nM"}
{"Structure (SMILES)": "COc1ccc2nc3cc(Cl)ccc3c(NCCCCNc3nc(N)nc(N)n3)c2c1", "target": "r(CCG)2 RNA, C–C mismatch", "assay": "binding", "Kd": "14000 nM"}
{"Structure (SMILES)": "CC(C)(C)Nc1c(F)c(S(N)(=O)=O)c(F)c(F)c1S(=O)(=O)CCc1ccccc1", "target": "CA2", "assay": "thermal shift", "setting": "pH 7.0, 37 °C", "Kd": "1.7 nM"}
{"Structure (SMILES)": "CCn1c2ccccc2c2cc(CNC)ccc21", "target": "TP53 (Homo sapiens, UniProt P04637, M133L/N239Y/N268D/V203A/Y220C)", "assay": "binding, ITC", "Kd": "~125000 nM"}
